Experimental data collected from several papers.
Every numbered part comes from another study and shows a few of its results, in no order.

Sample 1
Target: Replicase polyprotein 1ab, polymerase (rep, Severe acute respiratory syndrome coronavirus 2, UniProt P0DTD1)
Observed: enzyme activity
Action: inhibitor
Concentration: 20 µM
| Compound | inhibition [%] |
| --- | --- |
| CCN(Cc1ccccc1)C(=O)Cn1c(=O)n(C)c2cnc(-c3ccccc3)nc21 | 1.19 |
| FCc1ccc(OCCOc2ccc(Cl)cc2Cl)c(Cl)n1 | -1.27 |
| O=C(O)CCc1ccc(NCc2cccc(Oc3ccccc3)c2)cc1 | -1.8 |
| CC(C)[C@H](CO)Nc1nc(Nc2cccc(Cl)c2)c2ncn(C(C)C)c2n1 | 0.45 |
| O=C(O)c1ccc(/C=C2\SC(=S)N(c3cccc(C(F)(F)F)c3)C2=O)cc1 | -2.42 |
| CO[C@H]1/C=C/O[C@@]2(C)Oc3c(C)c(O)c4c(O)c(c(/C=N/N5CCN(C)CC5)c(O)c4c3C2=O)NC(=O)/C(C)=C\C=C\[C@H](C)[C@H](O)[C@@H](C)[C@@H](O)[C@@H](C)[C@H](OC(C)=O)[C@@H]1C | 16.9 |
| C#Cc1cccc(Nc2ncnc3cc(OCCOC)c(OCCO)cc23)c1 | 3.06 |
| COc1ccc(C(=O)Nc2sc3c(c2C(N)=O)CCCC3)cc1OC | 0.59 |
| NC1=N[C@@](c2cccc(-c3cncnc3)c2)(c2ccnc(C(F)F)c2)c2cccc(F)c21 | -0.7 |
| CC(C)(C)NCC(O)c1cc(Cl)c(N)c(Cl)c1 (centres unmarked) | -0.21 |
| CC(C)Nc1nc2cc(Cl)c(Cl)cc2n1[C@H]1O[C@@H](CO)[C@H](O)[C@@H]1O | 0.77 |
| O=C(O)[C@]1(Cc2cccc(Nc3nccs3)n2)CC[C@@H](Oc2cccc(Cl)c2F)CC1 | 5.78 |
| CC1(C)S[C@@H]2[C@H](NC(=O)C(C(=O)O)c3ccccc3)C(=O)N2[C@H]1C(=O)O (some centres unmarked) | 1.02 |
| CC=C1C(=O)C[C@H]2[C@@H]3CCC4=CC(=O)CC[C@]4(C)[C@H]3CC[C@]12C | -7.82 |
| Cc1c(N(C)CS(=O)(=O)O)c(=O)n(-c2ccccc2)n1C | 5.05 |
| COc1ccc(N2CCOCC2)c2sc(NC(=O)N3CCC(C)(O)CC3)nc12 | -1.23 |
| CC/C(=C(\c1ccc(O)cc1)c1ccc(OCCNC)cc1)c1ccccc1 | 6.31 |
| COc1cc(N)c(Cl)cc1C(=O)OCCCN1CCCCC1 | 2.43 |
| O=C1c2ccccc2-n2c1nc1ccccc1c2=O | -0.77 |
| COc1ccc([C@@H]2CC(=O)c3c(O)cc(O[C@@H]4O[C@H](CO)[C@@H](O)[C@H](O)[C@H]4O[C@@H]4O[C@@H](C)[C@H](O)[C@@H](O)[C@H]4O)cc3O2)cc1O | -3.72 |
| CCOc1ccc(/C=C2\NCCc3cc(OCC)c(OCC)cc32)cc1OCC | -2.73 |
| CN1CCC(=C2c3ccccc3CCc3sccc32)CC1 | -7.49 |
| COC(=O)Nc1nc2cc(C(=O)c3cccs3)ccc2[nH]1 | 2.64 |
| CN(C)NC(=O)CCC(=O)O | -8.42 |
| Cc1cc2c(cc1C(F)(F)F)N(C(=O)Nc1ccc(Oc3cccnc3C)nc1)CC2 | 6.08 |

Sample 2
Target: Interferon regulatory factor 5, full length, phosphomimetic (IRF5, Homo sapiens, UniProt Q13568-2, residues 1-514, S451D/S453D/S456D/S462D)
Technique: protein-binding microarray
Molecule type: double-stranded DNA, one strand shown
Sample: in vitro
Concentration: 940 nM top
Setting: 60-bp whole probe
With: salmon DNA 0.4 mg/ml
Relative to: random background probes
Reading: higher = stronger binding
All sequences stand within: GCCTAGCAC … GTCTTGATTCGCTTGACGCTGCTG
| Sequence | fitted relative affinity [z-score] |
| --- | --- |
| GACGGTCACCTTATCCTGACGTGCTAG | 0.223 |
| GGTGTTTTCTAAACCATTGTGTGCTAG | -0.0119 |
| TTAGAACTGAGTTGCGATTAGTGCTAG | 0.593 |
| TTAGATTTCGACACTGGGTTAGTGCTA | 0.507 |
| TTCTATCTCTGTTTTTGCTTGTGCTAG | 2.2 |
| GACGTTTTCGGGACTGGAGACGTGCTA | 0.384 |
| GACTTTTTAGATTTTTTTTCGTGCTAG | 1.03 |
| GGCGGACTGGGTATCGGGACGTGCTAG | 0.596 |

Sample 3
Cell line: HEK-293T
Organism: VSV pseudotyped with SARS-CoV-2 spike
Concentration: 10 µM
Time: 16 h
| Structure (SMILES) | pseudovirus infection |
| --- | --- |
| NNc1nncc2ccccc12 | 68% |
| CN1CCC(=C2c3ccccc3C=Cc3ccccc32)CC1 | 40.5% |
| O=C(O)c1cccnc1 | 75.2% |

Sample 4
Target: RING finger protein unkempt homolog, zinc fingers 1-6, GST-SBP tag (UNK, Homo sapiens, UniProt Q9C0B0, residues 30-357)
Technique: RNA Bind-n-Seq
Molecule type: RNA
Sample: in vitro
Concentration: not given
Setting: RNA with constant flanks, human-mouse chimeric sites, ends assumed
Relative to: input RNA pool
Reading: higher = stronger binding
All sequences stand within: GGGAGUUCUACAGUCCGACGAUC … CAACAGAGGAUUGAGCAUCA
Target sequence (chain): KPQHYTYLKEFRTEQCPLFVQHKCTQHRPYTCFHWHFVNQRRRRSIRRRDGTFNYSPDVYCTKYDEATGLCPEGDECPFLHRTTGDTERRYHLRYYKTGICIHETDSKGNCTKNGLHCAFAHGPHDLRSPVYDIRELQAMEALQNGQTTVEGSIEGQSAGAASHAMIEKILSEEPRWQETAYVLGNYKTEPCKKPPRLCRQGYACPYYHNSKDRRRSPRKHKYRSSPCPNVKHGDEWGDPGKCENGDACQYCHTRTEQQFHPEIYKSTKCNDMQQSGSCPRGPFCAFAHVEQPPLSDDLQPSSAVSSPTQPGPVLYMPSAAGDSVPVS
| Sequence | bound/input enrichment [ratio] |
| --- | --- |
| UACUACUAUGAUGGUGAUAUUGGCAAUUAUUAUUAUGGCCAGGGUCAUCCCAUGAAGCCUCAUAGAAUCCGCAUGACUCAUAACUUGCUGCUAAAUUAUGGCUUAUACCGAAAAAUGGAA | 0.17 |
| UGACAAGGGCACUGCAGAGCCAUGCCUUUCUUGGACAUACAGAAAAAGCUGGGCAUCAGCCUGGACCGGCACUUUAUGUUCCUAAGCGCAGAACAGCCCUAUAAGAAGGCUGGUCGAUGC | 0.0775 |
| CUGGGCUUCUCUUUUCUUUCUUUCCUUUAGGAAAAGCCUAAAGAUUAGGUUGUAAGAAAAACAGAAGCCAUGUUUCGAAGACCUGUAUUACAGGUAUUUCGUCAGUUUGUAAGACAUGAG | 0.297 |
| AUGGAGAAGGAUUCUCUGCCCCGCUUUGUGCGCUCUGAAUUUUAUAAGGAGCUAAUCAAGUAGUAAUCUGGUCAGGCUUCCAAAAGUUGCCCUGUGAGUUGAGUUACAUCCUUUGUAGCA | 0.242 |
| CCACCAGGAUCCCAGAAACAUGACUCUUGCUGCCUACAAAGAGAAGAUGAAGGAGCUCCCGCUGGUGUCCUUGUUCUGCUCCUGCUUCCUGGCCGAUCCCCUGAAUAAGUCGUCCUACAA | 0.231 |
| CUGAAAAACACAGAUAUCAAAGUUGUUGACUUUGGAAGUGCAACGUAUGAUGAUGAACAUCACAGUACUUUGGUGUCUACCCGGCACUACAGAGCUCCAGAGGUCAUUUUGGCUCUAGGU | 0.317 |
| ACAGUUAUAUUGUUGAGUUUCAUUUUCAUAUAUUCUUAUGGUGUCUGCUUGCCUGUGACUUCUGGUAAAAUAAAAUAAGCCUUUGAAUUAGCAUGCUCAUGGUAUUUAACAUUUUCUAAA | 0.595 |
| GCUGAAAAUGAAGAAGAGGCAGCUGAUGUCUGGUACAACCUGGGGCACAUAGCUGUGGGAAUCGGAGAUACAAACUUGGCCCAUCAGUGCUUCAGGCUGGCUCUGGUCCACAACAACCAC | 0.167 |

Sample 5
Target: Histone acetyltransferase KAT6A, both winged helices, GST fusion (KAT6A, Homo sapiens, UniProt Q92794, residues 1-181)
Technique: protein binding microarray
Molecule type: double-stranded DNA, one strand shown
Sample: in vitro
Concentration: not given
Setting: 8-mer, flanks averaged, mean of 2 arrays, mostly near background
Relative to: not given
Reading: higher = stronger binding
Target sequence (chain): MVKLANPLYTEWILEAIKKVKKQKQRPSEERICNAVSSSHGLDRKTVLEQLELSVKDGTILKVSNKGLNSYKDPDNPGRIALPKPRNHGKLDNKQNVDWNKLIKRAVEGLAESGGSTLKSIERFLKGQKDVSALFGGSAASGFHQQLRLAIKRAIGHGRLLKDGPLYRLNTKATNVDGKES
| Sequence | E-score |
| --- | --- |
| AGCTTGCG | 0.175 |
| AGCATGAT | -0.186 |
| CACGAACA | 0.0722 |
| GCGAGGTA | 0.0825 |
| TGCCGTAA | 0.258 |
| AGACTGGG | -0.217 |
| GCGGCATA | 0.284 |
| CTCCCTAC | -0.0844 |

Single results of other studies
| Compound | target | observed | action | concentration | setting | quantity | result |
| --- | --- | --- | --- | --- | --- | --- | --- |
| O=C1c2c(O)cccc2Cc2cccc(O)c21 | Replicase polyprotein 1ab, main protease (rep, Severe acute respiratory syndrome coronavirus 2, UniProt P0DTD1) | enzyme activity | inhibitor | 20 µM | hit confirmation, no DTT | inhibition | 75.8% |
